Experimental data from different studies.
Each line is one published result; not all experiments were run side by side. Values joined by “and” are separate records of one study, mostly repeats; a detail may differ.

Cc1cccc(Cn2ncc3c4cc(F)c(CN(C)C)cc4n(C)c3c2=O)n1
plasma concentration (Dutch-belted rabbit, plasma; intravitreal, 1 µM vitreous, 0.04 days): not detected

CC(=O)N[C@H](CC(=O)O)C(=O)N[C@H](Cc1c[nH]c2ccccc12)C(=O)N[C@H](Cc1ccccc1)C(=O)N[C@H](CCCCN)C(=O)N[C@H](C)C(=O)N[C@H](Cc1ccccc1)C(=O)N[C@H](Cc1ccc(O)cc1)C(=O)N[C@H](CC(=O)O)C(=O)N[C@H](CCCCN)C(=O)N[C@@H](C(=O)N[C@H](C)C(=O)N[C@H](CCC(=O)O)C(=O)N[C@H](CCCCN)C(=O)N[C@H](Cc1ccccc1)C(=O)N[C@H](CCCCN)C(=O)N[C@H](CCC(=O)O)C(=O)N[C@H](C)C(=O)N[C@H](Cc1ccccc1)C(N)=O)C(C)C
plasma concentration (human, plasma; oral, dose not given, 4 h post-dose, day 13): 75.6 ng/mL

C[C@@H](CO)NC(=O)c1cc(-c2ccc(Cl)cc2)nn(-c2cnn(C)c2)c1=O
plasma stability (human plasma; up to 2 h, 37 °C): stable

COc1ccc2c(c1)CN(C(=O)CCN1CCC(Cc3ccccc3)CC1)CCS2
plasma concentration (paroxysmal AF patients; oral, 540 mg, 0 min): 0 ng/mL

COc1ccc2cc3[n+](cc2c1OCCCOC(=O)c1cscn1)CCc1cc2c(cc1-3)OCO2
plasma ALT reduction (hyperlipidemic hamster; dose not given, 3 weeks): 43.8%

CC(C)(C)n1ncc2c(=O)n(Cc3cccc(F)c3)c(NCc3ccc(F)cn3)nc21
plasma protein binding (human plasma): 99%

O=C(Oc1cccc(CSc2ncccn2)c1)c1ccc([N+](=O)[O-])cc1
plasma level (mouse plasma; concentration not given, 5 min): not detected

C=C[C@]1(C)C[C@@H](OC(=O)CSc2ccc(NC(=O)c3ccco3)cc2)[C@]2(C)[C@H](C)CC[C@]3(CCC(=O)[C@H]32)[C@@H](C)[C@@H]1O
plasma concentration (Mycoplasma gallisepticum-infected chickens, plasma; intramuscular, 40 mg/kg, 0.083 h): 4080 ng/mL and 3960 ng/mL and 4800 ng/mL and 4680 ng/mL and 3570 ng/mL and 3470 ng/mL and 5040 ng/mL
